Published values of several laboratories.
A part holds a random share of what one study measured. Substitutions count along the parent as printed.

Set 1
Target: Prothrombin, mature alpha-thrombin (F2, Homo sapiens, UniProt P00734)
Technique: aptamer microarray, sandwich
Molecule type: DNA with 2'F-ANA
Sample: in vitro
Concentration: 200 nM
Notes: whole 15-mer aptamer, many near background
Added: Cy3 exosite-II aptamer, 400 nM
Reading: higher = stronger binding
Strand: GGTTGGTGTGGTTGG
Modification	mean fluorescence intensity [a.u.]
2'F-ANA at 5 6 7 8 9 10 13 15	46.4
2'F-ANA at 2 3 4 5 6 7 8 9 10 11 14	54.9
2'F-ANA at 2 3 5 6 12	266
2'F-ANA at 3 4 5 10 12 14	52.3
2'F-ANA at 2 3 6 7 8 9 10 12 13	366
2'F-ANA at 2 3 4 5 6 7 10 12 14 15	47.5
2'F-ANA at 2 4 5 7 8 13	55.4
2'F-ANA at 1 3 4 7 10 15	62.2

Set 2
Target: TAR DNA-binding protein 43, full length, His tag (TARDBP, Homo sapiens, UniProt Q13148, residues 1-414)
Technique: RNA Bind-n-Seq
Molecule type: RNA
Sample: in vitro
Concentration: 20 nM
Notes: 6-mer, flanks averaged, single round
Added: 150 mM KCl
Relative to: input library
Reading: higher = stronger binding
Strand	6-mer enrichment (R)
AUUUUG	0.719
CCAUAU	0.598
UAUAUC	0.552
ACCUUC	0.567
CUAAUU	0.613
CUGCUC	0.601
GAGUCC	0.816
AUGUCA	0.636

Set 3
Target: CREBRF, bZIP domain (human)
Technique: DHFR protein complementation
Sample: yeast
Notes: single substitutions, most at no-binding floor
Relative to: wild-type JUN-FOS pair
Reading: higher = stronger binding
Parent: JUN, bZIP domain (human); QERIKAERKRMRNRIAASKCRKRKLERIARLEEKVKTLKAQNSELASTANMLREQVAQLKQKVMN; partner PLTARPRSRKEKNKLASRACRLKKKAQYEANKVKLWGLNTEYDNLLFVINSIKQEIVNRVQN
Variant	binding fitness
S47H	-1.43 natural log
L38K	-1.35 natural log
N42P	-1.52 natural log
E44H	-1.18 natural log
L31G	-1.48 natural log
T48A	-1.53 natural log
E54T	-1.37 natural log
K36G	-1.4 natural log

Further values, each from its own experiment
Parent: viral docking peptide; KKAKRRLFTISDS
Variant	target	assay	test system	setting	how to read	quantity	result
AKAKRRLFTISDS [K1A]	CCND1, cyclin fold, Cln2 fusion (human)	yeast growth competition, sequencing	yeast	weak parent motif	relative to: not given, higher = stronger binding	normalised enrichment score	0.292
